# Experimental data from different studies.
# Protocols differ between the studies behind these lines.
# T1: G-quadruplex DNA, antiparallel fold (Homo sapiens); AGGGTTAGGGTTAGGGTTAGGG
# T2: G-quadruplex DNA, telomeric (Homo sapiens); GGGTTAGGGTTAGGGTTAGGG
# T3: G-quadruplex DNA, hybrid-1 monomeric G4 (Homo sapiens); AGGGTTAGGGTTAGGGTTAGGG
# T4: G-quadruplex DNA, parallel G4; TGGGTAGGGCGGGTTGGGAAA
# T5: G-quadruplex DNA, c-KIT promoter (Homo sapiens); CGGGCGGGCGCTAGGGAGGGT
# T6: G-quadruplex DNA, parallel, snap-back loop (Homo sapiens); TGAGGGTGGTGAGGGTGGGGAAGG
# T7: G-quadruplex DNA, hybrid fold (Homo sapiens); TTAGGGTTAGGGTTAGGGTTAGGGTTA
# T8: G-quadruplex DNA (Homo sapiens); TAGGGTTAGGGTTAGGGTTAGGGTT
# T9: G-quadruplex DNA, monomeric G-quadruplex; GGTTAGGTTAGGTTAGG
# T10: G-quadruplex DNA (Streptococcus pneumoniae); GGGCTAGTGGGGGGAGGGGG
# T11: G-quadruplex DNA, G-quadruplex (Homo sapiens); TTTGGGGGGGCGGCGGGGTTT
# T12: G-quadruplex DNA, parallel (Homo sapiens); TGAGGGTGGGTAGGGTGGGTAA
# T13: G-quadruplex DNA (Homo sapiens); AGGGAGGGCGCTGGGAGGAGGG
# T14: G-quadruplex DNA dimer (Homo sapiens); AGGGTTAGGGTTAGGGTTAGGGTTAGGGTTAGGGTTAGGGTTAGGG
Structure (SMILES),target,assay,conditions,scale,measurement,result
CN1CCN(CCCNc2ccc3c(c2)/C(=C2/CCc4ccc(NCCCN5CCN(C)CC5)cc42)CC3)CC1,"T1, G-quadruplex DNA, antiparallel fold (Homo sapiens)",1H NMR titration,,,binding,binds weakly
CN1C(=C(Cc2ccccc2)c2sc3ccccc3[n+]2C)C=Cc2ccccc21,"T2, G-quadruplex DNA, telomeric (Homo sapiens)",fluorescence titration,"pH 7.4, K+ 60 mM",,Kd,1770 nM
CN(C)CCCNc1cc2c3c(ccc4c3c1C(=O)N(CCCN(C)C)C4=O)C(=O)N(CCCN(C)C)C2=O,"T3, G-quadruplex DNA, hybrid-1 monomeric G4 (Homo sapiens)",ITC,"pH 7.0, 25 °C, KCl 100 mM",,Kd,230 nM
CC1=[N+]2C(=C(c3ccc(CN=[N+]=[N-])cc3)c3ccc(C)n3[B-]2(F)F)C=C1,"T4, G-quadruplex DNA, parallel G4","competitor, hemin competition, peroxidase activity",together with: hemin 1 µM,,binding,binds weakly
OCc1c(-c2ccccc2)nc2n1ccc1nc(-c3ccccc3)c(C=NNC3=NCCN3)n12,"T5, G-quadruplex DNA, c-KIT promoter (Homo sapiens)","thiazole orange displacement, competitor, fluorescent intercalator displacement",KCl 20 mM,,binding,binds weakly
C[n+]1ccc(/C=N/NC(=O)c2cccc(C(=O)N/N=C/c3cc[n+](C)c4ccccc34)n2)c2ccccc21,"T6, G-quadruplex DNA, parallel, snap-back loop (Homo sapiens)",Cy5 fluorescence quenching titration,"2 nM, pH 7.2, KCl 100 mM",,Kd,7.5 nM
CCn1c(-c2cccc(-c3nc4ccccc4n3CC)n2)nc2ccccc21.[C-]#Cc1ccc(C[N+](C)(C)C)cc1.[Pt+2],"T7, G-quadruplex DNA, hybrid fold (Homo sapiens)",UV melting,,,binding,binds weakly
CN(C)CCCN1C(=O)c2ccc3c4c(c(NCCCCCCCNc5cc6c7c(ccc8c7c5C(=O)N(CCCN(C)C)C8=O)C(=O)N(CCCN(C)C)C6=O)cc(c24)C1=O)C(=O)N(CCCN(C)C)C3=O,"T3, G-quadruplex DNA, hybrid-1 monomeric G4 (Homo sapiens)",ITC,"pH 7.0, 25 °C, KCl 100 mM",,Kd,260 nM
O=C(N/N=C/c1ccc(C[n+]2ccccc2)cc1)c1ccc2ccc3ccc(C(=O)N/N=C/c4ccc(C[n+]5ccccc5)cc4)nc3c2n1,"T8, G-quadruplex DNA (Homo sapiens)",fluorescence melting,"0.4 µM, pH 7.2, KCl 100 mM",,change in melting temperature,> 30 °C
Cc1ccc(Cn2cc3c(-c4ccc5c(c4)OCO5)nnc-3c3cc4c(cc32)OCO4)cc1,"T9, G-quadruplex DNA, monomeric G-quadruplex",fluorescence titration,KCl 100 mM,,Kd,12700 nM
CN(C)CCCOc1cc(C(=O)NCc2cn(Cc3c4ccccc4cc4ccccc34)nn2)cc(C(=O)NCc2cn(Cc3c4ccccc4cc4ccccc34)nn2)c1,"T10, G-quadruplex DNA (Streptococcus pneumoniae)",FRET melting,"5 µM, pH 7.4, potassium cacodylate 60 mM","baseline: DNA without compound, higher = more stabilisation",melting temperature shift,10 °C
CCC1=C(C)c2cc3[nH]c(cc4nc(cc5[nH]c(cc1n2)c(C)c5CCC(=O)NCCOCCOCC(=O)NCCN(CC(=O)N[C@H](CCCCN)C(=O)N[C@H](CCCCN)C(N)=O)C(=O)Cn1cnc2c(=O)[nH]c(N)nc21)C(CCC(=O)O)=C4C)c(C)c3CC,"T11, G-quadruplex DNA, G-quadruplex (Homo sapiens)",fluorescence titration,"pH 7.4, KCl 50 mM, single-site fit",,Kd,10.2 nM
C[n+]1ccc(/C=N/NC(=O)c2cncc(C(=O)N/N=C/c3cc[n+](C)c4ccccc34)n2)c2ccccc21,"T12, G-quadruplex DNA, parallel (Homo sapiens)",Cy5 fluorescence quenching titration,"2 nM, pH 7.2, KCl 100 mM",,Kd,13.9 nM
CN(C)c1ccc2c(c1)[Si](C)(C)C1=CC(=[N+](C)C)C=CC1=C2c1cc(C(=O)NCCCCCC(=O)NCCOc2cc(C(=O)Nc3cc(OCCN4CCCC4)c4ccccc4n3)nc(C(=O)Nc3cc(OCCN4CCCC4)c4ccccc4n3)c2)ccc1C(=O)[O-],"T13, G-quadruplex DNA (Homo sapiens)",fluorescence titration,"pH 7.4, KCl 100 mM, apparent, light-up",,Kd,1000 nM
CCN(CC)c1ccc2cc(-c3nc4c5cccnc5c5ncccc5c4[nH]3)c(=O)oc2c1.NCCN.[Pt+2],"T14, G-quadruplex DNA dimer (Homo sapiens)",CD spectroscopy,"pH 7.0, NaCl 100 mM",,binding,binds weakly
C[n+]1cccc2cc(/C=N/NC(=O)c3ccc4ccc5ccc(C(=O)N/N=C/c6ccc7c(ccc[n+]7C)c6)nc5c4n3)ccc21,"T6, G-quadruplex DNA, parallel, snap-back loop (Homo sapiens)",Cy5 fluorescence quenching titration,"2 nM, pH 7.2, KCl 100 mM",,Kd,14.8 nM

# Some of these lines once more:
Structure (SMILES),target,assay,conditions,scale,measurement,result
CN(C)c1ccc2c(c1)[Si](C)(C)C1=CC(=[N+](C)C)C=CC1=C2c1cc(C(=O)NCCCCCC(=O)NCCOc2cc(C(=O)Nc3cc(OCCN4CCCC4)c4ccccc4n3)nc(C(=O)Nc3cc(OCCN4CCCC4)c4ccccc4n3)c2)ccc1C(=O)[O-],"T13, G-quadruplex DNA (Homo sapiens)",fluorescence titration,"pH 7.4, KCl 100 mM, apparent, light-up",,Kd,1000 nM
